Measurements collected from several papers.
Each line is one published result; not all experiments were run side by side. ± marks the error that the study gave.

Structure (SMILES)	organism	test	system	conditions	IC50
Cc1[nH]c2ccc(C#N)cc2c(=O)c1Br	Plasmodium yoelii	–	17XL	384-well	0.86 ± 0.761 µM
CO[C@H]1/C=C/O[C@@]2(C)Oc3c(C)c(O)c4c(c3C2=O)C2=NC3(CCN(CC(C)C)CC3)NC2=C(NC(=O)/C(C)=C\C=C\[C@H](C)[C@H](O)[C@@H](C)[C@@H](O)[C@@H](C)[C@H](OC(C)=O)[C@@H]1C)C4=O	Mycobacteroides abscessus	bacterial growth	subsp. massiliense 095 clinical isolate	mixed morphotype	0.011 µM
O=C(Nc1ccc(Oc2ccc(Cl)cc2)c(Cl)c1)c1cc(I)cc(I)c1O	Trichomonas gallinae	CCK-8	trophozoites	24 h	14.4 µM
Cc1cc(=O)c(-c2ccc(Oc3ccc(Cl)cc3Cl)cc2)c(C)[nH]1	Plasmodium yoelii	–	17XL	384-well	0.564 ± 0.045 µM
O=C(/C=C\n1cnc(-c2cc(C(F)(F)F)cc(C(F)(F)F)c2)n1)NNc1ccccn1	herpes simplex virus 1	viral replication	fibroblasts, K26, GFP-expressing	–	> 10 µM
Cc1ncc([N+](=O)[O-])n1CCOC(=O)c1ccccc1	Trichomonas gallinae	CCK-8	trophozoites	24 h	5.08 µM
C=CC(=O)N1CC/C(=C\c2ccc(F)c([N+](=O)[O-])c2)C(=O)/C(=C/c2ccc(F)c([N+](=O)[O-])c2)C1	herpes simplex virus 1	viral replication	K26, GFP-expressing, 3D bioprinted skin, submerged	–	6.3 µM
CN(C)[C@@H]1C(O)=C(C(N)=O)C(=O)[C@@]2(O)C(O)=C3C(=O)c4c(O)ccc(Cl)c4[C@@](C)(O)[C@H]3C[C@@H]12	Trichomonas gallinae	CCK-8	trophozoites	24 h	16.5 µM
CN(C)c1ccc(C=CC(=O)NC(=O)c2ccccc2O)cc1	Plasmodium yoelii	–	17XL	384-well	0.205 ± 0.058 µM

Some of these lines once more:
Structure (SMILES)	organism	test	system	conditions	IC50
Cc1cc(=O)c(-c2ccc(Oc3ccc(Cl)cc3Cl)cc2)c(C)[nH]1	Plasmodium yoelii	–	17XL	384-well	0.564 ± 0.045 µM
